Assay results from different studies.
Protocols differ between the studies behind these lines.

SMILES = O=C(O)[C@H]1C[C@@H](O)CN1; test = binding, equilibrium dialysis LC-MS; setting = 5 µM, thermostabilized A2AR-BRIL construct; scale = relative to: no-protein control, direction not given; endpoint = z-scored log2 fold change; value = 0.167
SMILES = CCN1CCN(c2ccc(Nc3cc(N(C)C(=O)Nc4c(Cl)c(OC)cc(OC)c4Cl)ncn3)cc2)CC1; target or system = NLRP3 inflammasome (mouse); system = mouse BMDM; setting = 10 µM; endpoint = inhibition; value = 15.7%
SMILES = CC(C)NCC(O)c1ccc(O)c(O)c1 (stereo not drawn); system = ventricular cardiomyocytes, C57BL/6 mouse; setting = dose not given, 0.724 s; endpoint = sarcomere length; value = 1.72 µm
SMILES = Cn1cncc1C[C@H](NC(=O)CCN)C(=O)O; test = binding, equilibrium dialysis LC-MS; setting = 5 µM, thermostabilized A2AR-BRIL construct; scale = relative to: no-protein control, direction not given; endpoint = z-scored log2 fold change; value = 0.201
SMILES = C[C@@H](Oc1cc(-c2cnn(C3CCNCC3)c2)cnc1N)c1c(Cl)ccc(F)c1Cl; target or system = NLRP3 inflammasome (mouse); system = mouse BMDM; setting = 10 µM; endpoint = inhibition; value = 89.6%
SMILES = COc1cc2c(N3CCN(C(=O)Nc4ccc(OC(C)C)cc4)CC3)ncnc2cc1OCCCN1CCCCC1; target or system = iCell Cardiomyocytes (hiPSC-derived); test = xCELLigence Cardio impedance; setting = concentration not given, 2 h; scale = relative to: control; endpoint = beat rate; value = 92.9%
SMILES = CCOc1cc2ncc(C#N)c(Nc3ccc(OCc4ccccn4)c(Cl)c3)c2cc1NC(=O)/C=C/CN(C)C; target or system = NLRP3 inflammasome (mouse); system = mouse BMDM; setting = 10 µM; endpoint = inhibition; value = 31.9%
SMILES = NCC(O)CCC(N)C(=O)O (racemic); test = binding, equilibrium dialysis LC-MS; setting = 5 µM, thermostabilized A2AR-BRIL construct; scale = relative to: no-protein control, direction not given; endpoint = z-scored log2 fold change; value = 0.268
SMILES = Cc1[nH]c(/C=C2\C(=O)Nc3ccc(F)cc32)c(C)c1C(=O)NC[C@H](O)CN1CCOCC1; target or system = iCell Cardiomyocytes (hiPSC-derived); test = CellTiter-Glo; setting = concentration not given, 24 h; scale = relative to: control; endpoint = ATP level; value = 90.1%
SMILES = CC(C)=CC(=O)O; test = binding, equilibrium dialysis LC-MS; setting = 5 µM, thermostabilized A2AR-BRIL construct; scale = relative to: no-protein control, direction not given; endpoint = z-scored log2 fold change; value = -0.131
SMILES = C[C@@H](Oc1cc(-c2cnn(C3CCNCC3)c2)cnc1N)c1c(Cl)ccc(F)c1Cl; target or system = iCell Cardiomyocytes (hiPSC-derived); test = CellTiter-Glo; setting = concentration not given, 24 h; scale = relative to: control; endpoint = ATP level; value = 108%
SMILES = Cc1nc(N(C)C(=O)Cc2ccc(-c3ccccn3)cc2)sc1S(N)(=O)=O; target or system = human alphaherpesvirus 1; test = live-cell GFP imaging; system = primary human keratinocytes, K26 GFP; endpoint = IC50; value = 140 nM
SMILES = NC[C@H](O)c1ccc(O)c(O)c1; test = binding, equilibrium dialysis LC-MS; setting = 5 µM, thermostabilized A2AR-BRIL construct; scale = relative to: no-protein control, direction not given; endpoint = z-scored log2 fold change; value = 0.0769
SMILES = NC(=O)c1cnc2[nH]ccc2c1N[C@@H]1[C@@H]2CC3C[C@H]1C[C@@](O)(C3)C2; test = CD8+ CD28+ naive T cells, flow cytometry; system = Japanese humans, peripheral blood; setting = 20 mg single dose; scale = relative to: baseline; endpoint = percent change; value = -0.15%
SMILES = Cn1cc(-c2ccc(-c3cncc(Cl)c3N3CCC4(CCNC4=O)CC3)cc2)cn1; target or system = COLO 205; test = gene expression, microarray, item: SDC4 mRNA; setting = concentration not given, 6 h; scale = relative to: untreated cells; endpoint = log2 fold change; value = 2.9
SMILES = O=C1c2c(O)ccc(O)c2C(=O)c2c(NCCNCCO)ccc(NCCNCCO)c21; target or system = NLRP3 inflammasome (mouse); system = mouse BMDM; setting = 10 µM; endpoint = inhibition; value = 54.8%
SMILES = OC(CCN1CCCCC1)(c1ccccc1)C1CC2C=CC1C2 (stereo not drawn); test = resting-state EEG; system = healthy elderly humans; setting = oral, 4 mg, eyes closed, LS mean; scale = relative to: baseline; endpoint = change in EEG Beta2-power Pz-O1; value = -11.1%
SMILES = C#Cc1cccc(Nc2ncnc3cc(OCCOC)c(OCCOC)cc23)c1; target or system = NLRP3 inflammasome (mouse); system = mouse BMDM; setting = 10 µM; endpoint = inhibition; value = 5.64%
SMILES = Nc1nc(-c2ccccc2)nc2[nH]nc(Nc3ccc(C(F)(F)F)cc3)c12; target or system = coxsackievirus B3; system = 31-1-93, NMRI mice, CVB3 chronic myocarditis; setting = oral, 100 mg/kg twice daily, day 3, dosed days 1 to 7, score scale 0 to 7; scale = direction not given; endpoint = clinical score; value = 0.22
SMILES = C[C@H](O)[C@@H](O)[C@@H](O)[C@H](O)C=O; test = binding, equilibrium dialysis LC-MS; setting = 5 µM, thermostabilized A2AR-BRIL construct; scale = relative to: no-protein control, direction not given; endpoint = z-scored log2 fold change; value = 0.0312
SMILES = Oc1ccccc1-c1n[nH]cc1-c1ccnc2ccccc12; target or system = SSK2 (Candida albicans); test = kinase binding, MIB/MS competition; system = Candida albicans lysate; setting = 1 µM; scale = relative to: DMSO; endpoint = log2 fold change; value = 0.22

Repeated from above:
SMILES = C#Cc1cccc(Nc2ncnc3cc(OCCOC)c(OCCOC)cc23)c1; target or system = NLRP3 inflammasome (mouse); system = mouse BMDM; setting = 10 µM; endpoint = inhibition; value = 5.64%
SMILES = Nc1nc(-c2ccccc2)nc2[nH]nc(Nc3ccc(C(F)(F)F)cc3)c12; target or system = coxsackievirus B3; system = 31-1-93, NMRI mice, CVB3 chronic myocarditis; setting = oral, 100 mg/kg twice daily, day 3, dosed days 1 to 7, score scale 0 to 7; scale = direction not given; endpoint = clinical score; value = 0.22
SMILES = C[C@H](O)[C@@H](O)[C@@H](O)[C@H](O)C=O; test = binding, equilibrium dialysis LC-MS; setting = 5 µM, thermostabilized A2AR-BRIL construct; scale = relative to: no-protein control, direction not given; endpoint = z-scored log2 fold change; value = 0.0312
